Published values of several laboratories.
Each line is one published result; not all experiments were run side by side. ± gives the spread as reported.
Organism: Trypanosoma brucei rhodesiense

O=[N+]([O-])c1ccc(/C=N/N=C/c2ccccc2)o1  IC50 (parasite growth, CellTiter-Glo; IL1501 bloodstream form; 72 h): 4 ± 1.09 µM
Cc1ncnc2c1c(C(F)(F)F)cn2[C@@H]1O[C@H](CO)[C@@H](O)[C@H]1O  EC50 (resazurin; STIB-900; axenic HMI-9 medium): 1.89 µM
CC(C)OC(=O)/C=C/c1ccc(O)c(O)c1  antitrypanosomal activity (STIB900; concentration not given, bloodstream trypomastigotes, active if IC50 < 10 µM): active
CCOC(=O)CNC(=O)CN1C(=O)S/C(=C\c2ccc(OC)c(O)c2)C1=O  IC50 (cell viability; IL1501; 72 h): > 64 µM
CCCCOC(=O)/C=C/c1ccc(O)c(O)c1  antitrypanosomal activity (STIB900; concentration not given, bloodstream trypomastigotes, active if IC50 < 10 µM): active
CCOC(=O)C(C)NC(=O)CN1C(=O)N/C(=C\c2ccc(C)cc2)C1=O (stereo not drawn)  IC50 (cell viability; IL1501; 72 h): > 57 µM
O=[N+]([O-])c1ccc(/C=N/N=C/c2ccc(F)cc2)o1  IC50 (parasite growth, CellTiter-Glo; IL1501 bloodstream form; 72 h): 2.42 ± 0.4 µM
Cc1ncnc2c1c(C1=CCSCC1)cn2[C@@H]1O[C@H](CO)[C@@H](O)[C@H]1O  EC50 (resazurin; STIB-900; axenic HMI-9 medium): > 64 µM
O=[N+]([O-])c1ccc(/C=N/N=C/c2ccc(O)cc2)s1  IC50 (parasite growth, CellTiter-Glo; IL1501 bloodstream form; 72 h): 0.37 ± 0.05 µM
CCCOC(=O)/C=C/c1ccc(O)c(O)c1  antitrypanosomal activity (STIB900; concentration not given, bloodstream trypomastigotes, active if IC50 < 10 µM): active
O=[N+]([O-])c1ccc(/C=N/N=C/c2ccc(OCc3ccccc3)cc2)s1  IC50 (parasite growth, CellTiter-Glo; IL1501 bloodstream form; 72 h): 4.1 ± 1.13 µM
O=C(Nc1ccc2c(c1)CN(c1ccc(Cl)cc1)C2=O)N1CC[C@H](F)C1  growth inhibition (cell growth, resazurin; STIB-900; concentration not given, 3 days): inactive

Some of these lines once more:
CCCCOC(=O)/C=C/c1ccc(O)c(O)c1  antitrypanosomal activity (STIB900; concentration not given, bloodstream trypomastigotes, active if IC50 < 10 µM): active
